Assay results from different studies.
Compare with care: the assays were run in different laboratories. “And” joins repeats or separate records; there may be more than shown. ± gives the spread as reported.

| SMILES | test | test system | setting | how to read | endpoint | result |
| --- | --- | --- | --- | --- | --- | --- |
| CCC[C@@](N)(CO)CCc1ccc(OCCCCCC(C)C)cc1 |  | dog, male hounds, plasma | oral capsule, 15 mg/kg, geometric mean |  | AUC(0-t) | 16 µM·h |
| O=C(Nc1ccccc1)C1CCN(C(=O)Oc2cccnc2)CC1 | measured: Constipation | healthy female human | concentration not given, all doses pooled |  | adverse event incidence | 4% |
| CO[C@H]1C[C@@H]2CC[C@@H](C)[C@@](O)(O2)C(=O)C(=O)N2CCCC[C@H]2C(=O)O[C@H]([C@H](C)C[C@@H]2CC[C@@H](OC(=O)NCCOCCOCCOCCOCCOCCOCCOCCOCCC(=O)N3CCc4cc(Cn5nc(-c6ccc7oc(N)nc7c6)c6c(N)ncnc65)ccc4C3)[C@H](OC)C2)C[C@@H](O)[C@H](C)/C=C(\C)[C@@H](O)[C@@H](OC)C(=O)[C@H](C)C[C@H](C)/C=C/C=C/C=C/1C |  | patients with advanced solid tumours | intravenous, dose not given, any grade |  | incidence of fatigue TRAE | 42% |
| CCN1[C@@H](C(=O)NC23CCC(C(=O)O)(CC2)CC3)[C@H](c2cccc(Cl)c2F)[C@]2(C(=O)Nc3cc(Cl)ccc32)C12CCCCC2 |  | patients with advanced solid tumours | 100 mg |  | oral mucositis incidence | 9.1% |
| COc1ncccc1-c1cnn2ccc(N3CCN(C(=O)OC(C)C)CC3)nc12 |  | mouse nerve ligation model, plasma | oral, 3 mg/kg, 120 min after last dose, repeat dosing day 1 |  | drug concentration | 510 nM |
| CCc1ccc(CC/C=C/c2ccc3c(c2)C(=O)CC3)cc1 |  | Sprague-Dawley rat, male | oral, 120 mg/kg/day, 14 days |  | Calcium | 2.42 mM |
| C=CC(=O)Nc1cc(Nc2nccc(Nc3cc(Cl)c(F)cc3C(C)(C)O)n2)c(OC)cc1N1CC[C@@H](N(C)C)C1 | treatment-emergent adverse events | human | oral, 300 mg, phase I clinical trial |  | incidence of blood creatinine increased | 17.6% |
| CC(C)CC(=O)OC[C@H]1O[C@@](C#N)(c2ccc3c(N)ncnn23)[C@H](O)[C@@H]1O |  | rat whole blood | 5 µM, 30 min |  | remaining compound | 0% |
| O=C1[O][Pt]2([NH][C@@H]3CCCC[C@H]3[NH]2)[O]C1=O | AUC-based, measured: platinum | BALB/c mice, CT26 tumour | iv | baseline: tumour over liver | tumour to organ ratio | 0.4 |
| COc1ccc(C[C@@H]2NC(=O)[C@H]([C@@H](C)O)NC(=O)[C@@H]3[C@@H]4CCN3C(=O)[C@@H]3Cc5cn(c6ccc(F)cc56)CCCCCCN(Cc5ccc(cc5)CCNC(=O)[C@]5(C)CCCN5C2=O)C(=O)CCC(=O)N[C@@H](C)C(=O)N[C@H](CNC(=O)CCCCC[N+](C)(C)C)C(=O)N[C@@H](Cc2cccc(c2)CNC(=O)CO4)C(=O)N3)cc1 | measured: respiratory tract irritation | human | dose not given |  | participants with adverse event | 2% |
| CC[C@H](C)[C@H](NC(=O)[C@H](Cc1ccccc1)NC(=O)[C@H](CCC(=O)O)NC(=O)[C@H](CCCNC(=N)N)NC(=O)[C@H](C)NC(=O)[C@H](C)NC(=O)[C@H](CCC(N)=O)NC(=O)[C@H](CCC(=O)O)NC(=O)[C@H](CCC(=O)O)NC(=O)[C@H](CC(C)C)NC(=O)[C@H](Cc1ccc(O)cc1)NC(=O)[C@H](CO)NC(=O)[C@H](CO)NC(=O)[C@@H](NC(=O)[C@H](CC(=O)O)NC(=O)[C@H](CO)NC(=O)[C@@H](NC(=O)[C@H](Cc1ccccc1)NC(=O)[C@@H](NC(=O)CNC(=O)[C@H](CCC(=O)O)NC(=O)[C@H](C)NC(=O)CCc1cnc[nH]1)[C@@H](C)O)[C@@H](C)O)C(C)C)C(=O)N[C@@H](C)C(=O)N[C@@H](Cc1c[nH]c2ccccc12)C(=O)N[C@@H](CC(C)C)C(=O)N[C@H](C(=O)N[C@@H](CCCNC(=N)N)C(=O)NCC(=O)N[C@@H](CCCNC(=N)N)C(=O)N[C@@H](CCCCNC(=O)COCCOCCNC(=O)COCCOCCNC(=O)CC[C@H](NC(=O)CCCCCCCCCCCCCCCCC(=O)O)C(=O)O)C(=O)NCC(=O)NCC(=O)N[C@@H](CO)C(=O)N[C@@H](CCCCNC(=O)[C@H](CCCCNc1c(NCCCCCN(O)C(=O)CCC(=O)NCCCCCN(O)C(=O)CCC(=O)NCCCCCN(O)C(C)=O)c(=O)c1=O)Nc1c(NCCCCCN(O)C(=O)CCC(=O)NCCCCCN(O)C(=O)CCC(=O)NCCCCCN(O)C(C)=O)c(=O)c1=O)C(=O)O)C(C)C [zirconium-89 labelled] | ex vivo gamma counting | Sprague-Dawley rat, male, stomach | intravenous, 1 nmol, 24 h |  | tissue uptake | 0.158 %ID/g and 0.169 %ID/g and 0.183 %ID/g and 0.179 %ID/g |
| O=C1Nc2cc3[nH]nc(-c4ccncc4)c3cc2CN1Cc1ccccc1 | measured: Dyspnea | patients with advanced solid tumours | intravenous, dose not given |  | patients with grade ≥3 TEAE | 7% |
| CC(=O)c1c(C)c2cnc(Nc3ccc(C4CCN(CCS(C)(=O)=O)CC4)cn3)nc2n(C2CCCC2)c1=O |  | beagle dog, female, fasted, blood | oral gavage, 15 mg/kg, acidified methylcellulose vehicle |  | AUC(0-t) | 1320 ng·h/mL |
| COc1ccc2c(c1)CN[C@@H](C(=O)N[C@H](CN1CC[C@@](C)(c3cccc(O)c3)[C@@H](C)C1)C(C)C)C2 |  | Sprague-Dawley rat, brain | intraperitoneal, 5 mg/kg |  | AUCtotal | 1850 ng·h/g |
| C[C@H]1COCCN1c1nc(NCc2cccnc2C(F)(F)F)c2cccnc2n1 |  | male CD-1 mouse, femur bone marrow | oral, 1000 mg/kg twice, 48 h |  | PCE per 200 erythrocytes | 111 and 97 and 76 |
| OB(O)CSc1nc2ccccc2n1Cc1ccc(C(F)(F)F)cc1C(F)(F)F |  | mouse, thigh | subcutaneous, 25 mg/kg, 8 h |  | concentration | 20000 ng/g |
| COC[C@@H](CC(C)C)NC(=O)c1ccc(C)c(C)c1 |  | Hsd:ICR (CD-1) mouse, male, bone marrow | oral, 1352 mg/kg, 24 h |  | PCE to total erythrocyte ratio | 0.51 |
| COc1cc2c(Oc3ccc4[nH]c(C)cc4c3F)ccnc2cc1OCC1(N)CC1 |  | paediatric recurrent refractory sarcoma | 12 mg |  | grade 1 or 2 weight loss | 18.2% |
| C[C@]1(CO)Cc2ncn(-c3ccc(C#N)c(Cl)c3)c2C(=O)O1 |  | human, plasma | 80 mg, first dose fasted |  | tmax | 1.5 h |

| SMILES | test | test system | setting | how to read | endpoint | result |
| --- | --- | --- | --- | --- | --- | --- |
| C[C@@H]1OC(=O)NN=C1c1ccc(-c2ccc(F)cc2)c(C(F)(F)F)c1 | phase I trial, measured: Anaemia all grades | human patients | 10 mg loading then 0.5 mg daily |  | patients with adverse event | 0% |
| CC(C)(O)c1cc(Nc2cc(Oc3cn(C4CC4)nc3C3CCOCC3)ccn2)ccn1 |  | grade 4 glioma expansion cohort | oral, 50 mg twice daily |  | AST increased, grade ≥3 | 0% |
| N[C@@H]1c2ccccc2OC12CCN(c1cnc3c(N4CCCc5ncccc54)n[nH]c3n1)CC2 |  | advanced metastatic solid tumour patients | oral, 150 mg once daily |  | TEAE leading to interruption | 100% |
| COc1ccnc(C(=O)N[C@H]2COC(=O)[C@H](Cc3ccccc3)[C@@H](OC(=O)C(C)C)[C@H](C)OC2=O)c1OCOC(=O)C(C)C | maternal toxicity | rat, female | highest dose tested |  | NOAEL | 1040 mg/kg/day |
| O=C(Nc1ccccc1)C1CCN(C(=O)Oc2cccnc2)CC1 | adverse event reporting | healthy women | oral, 20 mg, 7 days |  | subjects with Rhinitis adverse event | 7.1% |
| C[C@@H]1NC(=O)[C@H](CCCCNC(=O)CO/N=C/C(=O)NCCCC[C@@H]2NC(=O)[C@@H](Cc3ccccc3)NC(=O)[C@H](CC(=O)O)NC(=O)CNC(=O)[C@H](CCCNC(=N)N)NC2=O)NC(=O)CNC(=O)[C@@H]2CCCN2C(=O)[C@H](CCCCNC(=O)CO/N=C/C(=O)NCCCC[C@@H]2NC(=O)[C@@H](Cc3ccccc3)NC(=O)[C@H](CC(=O)O)NC(=O)CNC(=O)[C@H](CCCNC(=N)N)NC2=O)NC(=O)[C@H](CCCCNC(=O)CN2CCCNCCNCCCNCC2)NC(=O)[C@H](CCCCNC(=O)CO/N=C/C(=O)NCCCC[C@@H]2NC(=O)[C@@H](Cc3ccccc3)NC(=O)[C@H](CC(=O)O)NC(=O)CNC(=O)[C@H](CCCNC(=N)N)NC2=O)NC(=O)CNC(=O)[C@@H]2CCCN2C(=O)[C@H](CCCCNC(=O)CO/N=C/C(=O)NCCCC[C@@H]2NC(=O)[C@@H](Cc3ccccc3)NC(=O)[C@H](CC(=O)O)NC(=O)CNC(=O)[C@H](CCCNC(=N)N)NC2=O)NC1=O [copper-64 labelled] | biodistribution after PET | mouse, U-87 MG tumour xenograft, tumor | intravenous, 24 h |  | tissue uptake | 4.47 ± 0.37 %ID/g |
| N=C(N)NCCC[C@@H](NC(=O)[C@@H](N)Cc1ccccc1)C(=O)N[C@@H](Cc1ccccc1)C(=O)N[C@@H](CCCCN)C(N)=O | LC-MS | human | 15 mg, 11.83 h |  | mean amount excreted in urine | 1.22e+06 ng |
| O=c1ccccc(C2CCCO2)c1O (stereo not shown) |  | male CD-1 mice | oral, micronucleus study |  | maximum tolerated dose | 1000 mg/kg |
| CC(C)C[C@H](NC(=O)[C@H](CCCCN)NC(=O)OCC1c2ccccc2-c2ccccc21)C(=O)N[C@H](C(=O)N[C@@H](Cc1ccccc1)C(=O)N[C@@H](Cc1ccccc1)C(=O)N[C@@H](CCCCN)C(=O)NCC(=O)N[C@@H](Cc1ccccc1)C(=O)N[C@@H](C)C(=O)N[C@@H](Cc1c[nH]c2ccccc12)C(=O)N[C@@H](CC(N)=O)C(=O)N[C@H](C(=O)N[C@H]1CSSC[C@@H](C(=O)N[C@@H](Cc2c[nH]cn2)C(=O)N[C@@H](CCCNC(=N)N)C(=O)N[C@@H](CCCNC(=N)N)C(=O)N[C@@H](C)C(=O)N[C@@H](CC(N)=O)C(N)=O)NC(=O)[C@H](C(C)C)NC(=O)[C@H](CCCNC(=N)N)NC(=O)[C@H](C(C)C)NC(=O)CNC(=O)[C@H](CC(N)=O)NC(=O)[C@H](CCCNC(=N)N)NC(=O)[C@H](Cc2ccc(O)cc2)NC(=O)[C@H](C(C)C)NC1=O)C(C)C)C(C)C |  | ICR mice, blood | intraperitoneal, 10 mg/kg, day 5 |  | lymphocytes | 72.6 ± 1.7% |
| CCN1CCN(Cc2ccc(Nc3ncc(F)c(-c4cc(F)c5nc6n(c5c4)[C@H](C)CCC6)n3)nc2)CC1 | Phase Ia and Ib | patients with solid tumours | dose not given, all grades |  | hypokalaemia incidence | 47.1% |
| C=CC(=O)N1CC[C@H](n2nc(C#Cc3cc(OC)cc(OC)c3)c3c(N)ncnc32)C1 |  | patients with advanced solid tumours | oral, dose not given, Nausea, any grade, QD, with: lanthanum carbonate hydrate |  | adverse drug reaction incidence | 12.5% |
| CC[C@H](C)[C@H](NC(=O)[C@H](Cc1ccc(O)cc1)NC(=O)[C@@H]1CCCN1C(=O)[C@H](CCCNC(=N)NC(=O)NCCOCCOCCNC(=O)CCCCCN1/C(=C/C=C/C=C/C2=[N+](CCCCS(=O)(=O)[O-])c3ccccc3C2(C)C)C(C)(C)c2cc(S(=O)(=O)O)ccc21)NC(=O)[C@@H](N)CCCNC(=N)N)C(=O)N[C@@H](CC(C)C)C(=O)O | stable, RP-HPLC | PBS | up to 48 h, pH 7.4, 22 °C |  | stability | stable |
| C[C@H]1CN(C(=O)CC#N)[C@]12CCN(c1ncnc3[nH]ccc13)C2 |  | rat, male | oral, 6 months, repeated dosing |  | NOAEL | 3 mg/kg |
| C=CCNc1c(O)cc2c(O)c1C[C@@H](C)C[C@H](OC)[C@H](O)[C@@H](C)/C=C(\C)[C@H](OC(N)=O)[C@@H](OC)/C=C\C=C(/C)C(=O)N2 |  | unresectable or metastatic STS, GIST, other | intravenous, 225 mg/m^2 |  | patients with vomiting TEAE | 33% |
| CN1CC[C@@H](c2c(O)cc(O)c3c(=O)cc(-c4ccc(C(F)(F)F)cc4Cl)oc23)[C@@H]1CO | measured: Fatigue | B-cell malignancies | oral, 150 mg, intermittent dosing |  | patients with adverse event | 0% |
| O=S(=O)(Nc1ccccc1)c1ccc(NC(=S)Nc2ccccc2)cc1 |  | female mice, heart | oral, 20 mg/kg daily 14 days | baseline: body weight | relative organ weight | 0.49% |
| Cn1ncc(-c2nc(N[C@H]3CC[C@H](N)CC3)ncc2Cl)c1CC1CC1 | measured: diarrhea any grade | human patients phase I | dose not given |  | adverse event incidence | 40% |
| NC(=O)[C@H]1CCN(c2ncnc(N)c2F)C[C@@H]1N1CCC[C@@H](Nc2cc(Cl)cc(C(F)(F)F)c2)C1=O |  | B-cell malignancy patients | oral, 82 mg twice daily, dose |  | grade ≥3 anaemia | 14% |

Excerpt of the above:
| SMILES | test | test system | setting | how to read | endpoint | result |
| --- | --- | --- | --- | --- | --- | --- |
| CC[C@H](C)[C@H](NC(=O)[C@H](Cc1ccc(O)cc1)NC(=O)[C@@H]1CCCN1C(=O)[C@H](CCCNC(=N)NC(=O)NCCOCCOCCNC(=O)CCCCCN1/C(=C/C=C/C=C/C2=[N+](CCCCS(=O)(=O)[O-])c3ccccc3C2(C)C)C(C)(C)c2cc(S(=O)(=O)O)ccc21)NC(=O)[C@@H](N)CCCNC(=N)N)C(=O)N[C@@H](CC(C)C)C(=O)O | stable, RP-HPLC | PBS | up to 48 h, pH 7.4, 22 °C |  | stability | stable |
| C[C@H]1CN(C(=O)CC#N)[C@]12CCN(c1ncnc3[nH]ccc13)C2 |  | rat, male | oral, 6 months, repeated dosing |  | NOAEL | 3 mg/kg |
